Results gathered from unrelated publications.
A part holds a random share of what one study measured.

Block 1
Target: Ras GTPase-activating protein-binding protein 1, C-terminal RGG region (G3BP1, Homo sapiens, UniProt Q13283)
Chain of UniProt Q13283 (whole entry, looked up): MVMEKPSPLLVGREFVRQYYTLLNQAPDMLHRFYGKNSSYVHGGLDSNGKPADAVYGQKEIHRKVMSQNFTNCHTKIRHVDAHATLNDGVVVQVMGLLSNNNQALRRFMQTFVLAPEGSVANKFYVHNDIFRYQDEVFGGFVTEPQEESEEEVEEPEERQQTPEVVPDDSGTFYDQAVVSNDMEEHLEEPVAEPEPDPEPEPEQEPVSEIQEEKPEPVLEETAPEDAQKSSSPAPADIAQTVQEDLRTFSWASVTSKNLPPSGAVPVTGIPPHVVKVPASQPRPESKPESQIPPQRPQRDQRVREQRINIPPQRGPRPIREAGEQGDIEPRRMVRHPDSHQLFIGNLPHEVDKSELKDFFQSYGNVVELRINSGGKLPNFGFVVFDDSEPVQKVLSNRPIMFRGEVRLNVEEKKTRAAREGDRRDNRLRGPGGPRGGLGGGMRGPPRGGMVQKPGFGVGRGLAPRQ
Method: RNA Bind-n-Seq
Molecule type: RNA
Medium: in vitro
Tested at: 1 µM
Setting: whole 134-nt RNA, ends assumed
Together with: 150 mM KCl
Reference: input library
Direction: higher = stronger binding
`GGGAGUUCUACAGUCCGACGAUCAGUCCUGUGCUACACAUCGUAUGUACCGAAUCGGGGUGGGGAAAAAAAGGGGUGGGGAAAGUAUUAUGUUACGCCGUUCGGAUCUGCACUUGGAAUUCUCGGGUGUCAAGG` gave a log2 enrichment of 1.68.
`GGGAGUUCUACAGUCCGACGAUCCCUGUGCUACACAUCGUAUGUACCGAAUCGGGGAAAAAAAGGGGUGGGGUUUUUUUGGGGAAAGUAUUAUGUUACGCCGUUCGGAUCUGCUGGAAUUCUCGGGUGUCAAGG` gave a log2 enrichment of 0.489.
`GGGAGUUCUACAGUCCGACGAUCGUCCUGUGCUACACAUCGUAUGUACCGAAUCGGGCCCCCCGGGCCCCCCGGCCCCCCGGAAAGUAUUAUGUUACGCCGUUCGGAUCUGCAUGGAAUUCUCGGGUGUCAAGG` gave a log2 enrichment of -1.19.
With `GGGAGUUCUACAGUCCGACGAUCCCUGUGCUACACAUCGUAUGUACCGAAUCGGGAAAAAGGGAAAAAAAGGGAAAAAAAGGGAAAGUAUUAUGUUACGCCGUUCGGAUCUGCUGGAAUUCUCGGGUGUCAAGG` the log2 enrichment was -1.81.
With `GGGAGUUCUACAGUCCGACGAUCGCAGGAAGUAAAAACAAAUGGAAAUGCUUCGGAUAGUGGCAGGGGUGGGGGUUGCUAAGGAAAGGGUGGGAUGGGAAUGGGUAAAGAGUUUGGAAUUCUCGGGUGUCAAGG` the log2 enrichment was 2.25.
The log2 enrichment of `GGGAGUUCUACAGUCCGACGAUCACCAUGCAGGUGGGCAUCUUUGGGAAGUGGGGCAAGGGGGGGAUAUGGAGGGGGGUAACACUUUGGGAACAGGUGGUCCCAGGUCGUUUCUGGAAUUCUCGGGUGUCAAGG` is reported as 2.19.
With `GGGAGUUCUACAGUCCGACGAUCAAGUCCUGUGCUACACAUCGUAUGUACCGAAUCGGGUUUUUGGGUUUGGGUUUGGGAAAGUAUUAUGUUACGCCGUUCGGAUCUGCACUUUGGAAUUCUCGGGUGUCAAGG` the log2 enrichment was 1.37.
`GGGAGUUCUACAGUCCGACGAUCUGAAAAUUCUCGACUGGCUGCUGAGGUUUACAAAGACAUGCCGGAAACCAGCUUUACUCGAACCAUUUCUAAUCCUGAGGUGGUUAUGAAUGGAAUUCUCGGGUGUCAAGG` has a log2 enrichment of -1.94.
`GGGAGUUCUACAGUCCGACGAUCUCCUCAAGUCCUGUGCUACACAUCGUAUGUACCGAAUCGGGGUGGUGGUGGGAAAGUAUUAUGUUACGCCGUUCGGAUCUGCACUUCCAGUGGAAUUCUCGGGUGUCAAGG` has a log2 enrichment of 0.274.
The log2 enrichment of `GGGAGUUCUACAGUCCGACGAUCGCAGGAAGUAAAAACAAAUGGAAAUGCUUCGGAUAGUGGCAGGGGUGGGGGUUGCUAAGGAAAGGGCGGGAUGGGAGUGGGUAAAGAGUUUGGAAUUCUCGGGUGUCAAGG` is reported as 1.35.

Block 2
Target: Sal-like protein 4, full length isoform A (SALL4, Homo sapiens, UniProt Q9UJQ4, residues 1-1053)
Chain of UniProt Q9UJQ4 (whole entry, looked up): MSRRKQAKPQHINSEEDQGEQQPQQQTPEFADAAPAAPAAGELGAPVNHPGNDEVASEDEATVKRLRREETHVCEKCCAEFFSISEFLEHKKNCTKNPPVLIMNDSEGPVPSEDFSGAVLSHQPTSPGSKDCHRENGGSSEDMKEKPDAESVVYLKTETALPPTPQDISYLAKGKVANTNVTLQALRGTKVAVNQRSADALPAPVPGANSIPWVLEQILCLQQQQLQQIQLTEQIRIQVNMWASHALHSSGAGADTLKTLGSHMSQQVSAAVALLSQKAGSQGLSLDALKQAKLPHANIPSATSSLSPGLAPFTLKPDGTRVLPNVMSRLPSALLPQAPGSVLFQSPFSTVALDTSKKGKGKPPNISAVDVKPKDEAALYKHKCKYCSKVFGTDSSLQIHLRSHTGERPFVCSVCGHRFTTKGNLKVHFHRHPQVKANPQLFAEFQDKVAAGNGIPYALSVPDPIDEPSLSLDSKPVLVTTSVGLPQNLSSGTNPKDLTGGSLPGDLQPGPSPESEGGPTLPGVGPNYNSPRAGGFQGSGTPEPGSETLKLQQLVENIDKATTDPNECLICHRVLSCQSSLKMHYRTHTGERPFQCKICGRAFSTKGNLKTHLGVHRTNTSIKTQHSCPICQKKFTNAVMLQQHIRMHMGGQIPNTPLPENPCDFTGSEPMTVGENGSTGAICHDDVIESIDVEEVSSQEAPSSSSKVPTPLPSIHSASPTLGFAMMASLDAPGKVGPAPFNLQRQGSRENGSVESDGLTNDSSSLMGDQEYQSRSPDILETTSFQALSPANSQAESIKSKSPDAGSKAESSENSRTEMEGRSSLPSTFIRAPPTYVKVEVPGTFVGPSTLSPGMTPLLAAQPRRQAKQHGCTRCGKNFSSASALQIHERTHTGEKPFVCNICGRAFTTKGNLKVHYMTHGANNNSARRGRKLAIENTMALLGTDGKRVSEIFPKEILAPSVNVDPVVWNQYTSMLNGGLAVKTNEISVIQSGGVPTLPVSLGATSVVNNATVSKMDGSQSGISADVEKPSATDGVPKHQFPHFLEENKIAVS
Method: universal PBM
Molecule type: double-stranded DNA, one strand shown
Medium: in vitro
Tested at: 600 nM
Setting: 8-mer, flanks averaged, mean of replicates
Direction: higher = stronger binding
The E-score of `ACCTCACC` is reported as -0.143.
`CCGCAGCG` gave an E-score of -0.325.
The E-score of `GGCGAAAC` is reported as -0.0969.
With `AACCGAAC` the E-score was -0.242.
For `CTGCAGCC`, the E-score was -0.254.
`AACGCTGT` has an E-score of -0.0308.
`CCCGGAGG` has an E-score of -0.456.
For `TAAATAAA`, the E-score was 0.338.
The E-score of `CTCGGGGA` is reported as -0.278.
`AGATCGAT` has an E-score of 0.0612.
`GCACGAGC` has an E-score of -0.282.
`CAATCCTG` has an E-score of 0.124.
For `AGCACACG`, the E-score was -0.156.
`ATAATCAG` gave an E-score of 0.284.
`CACCGTGG` gave an E-score of -0.316.
`AAGACCCT` has an E-score of 0.00598.
For `AAGCAACT`, the E-score was 0.117.
For `AAGAAAGA`, the E-score was 0.143.
`CAAAAATG` gave an E-score of 0.202.
The E-score of `CAAGAGTC` is reported as -0.0195.
For `GCCCCCCC`, the E-score was -0.397.
`CGTAATCC` gave an E-score of -0.0965.
With `CTATGAAG` the E-score was 0.16.
`CAGGCAGC` gave an E-score of -0.238.
The E-score of `CCAGCTAA` is reported as -0.0807.

Block 3
Target: RING finger protein unkempt homolog, zinc fingers 1-6, SBP tag (UNK, Homo sapiens, UniProt Q9C0B0, residues 30-357)
Chain of UniProt Q9C0B0 (30-357, looked up): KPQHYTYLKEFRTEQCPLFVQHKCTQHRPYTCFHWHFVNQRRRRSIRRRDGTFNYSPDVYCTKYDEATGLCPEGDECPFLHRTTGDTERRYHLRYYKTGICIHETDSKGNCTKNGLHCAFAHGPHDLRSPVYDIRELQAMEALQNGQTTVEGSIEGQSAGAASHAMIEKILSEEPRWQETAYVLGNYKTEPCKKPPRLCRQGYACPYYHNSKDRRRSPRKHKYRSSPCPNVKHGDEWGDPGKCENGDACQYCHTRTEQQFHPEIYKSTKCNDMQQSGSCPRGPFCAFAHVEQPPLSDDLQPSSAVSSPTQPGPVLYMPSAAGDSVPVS
Method: RNA Bind-n-Seq
Molecule type: RNA
Medium: in vitro
Tested at: 100 nM
Setting: RNA with constant flanks, ends assumed
Reference: input RNA pool
Direction: higher = stronger binding
For `GGGAGUUCUACAGUCCGACGAUCUCUAUACAAUUUUAAAAAUACUUCCUCACCGGAUGCUUUGGCCCUUCAUCUAUUUAAUCACCGCUACAUACCUAUUUUUUAUAAGCCGCAGUACACAUUCAAAGGGGUAUUCCCCGCUCACAACAGAGGAUUGAGCAUCA`, the bound/input enrichment was 2.86 ratio.
`GGGAGUUCUACAGUCCGACGAUCGUCAUCUGACUGGAUGAAGACUGUUCCAAGUUACAACCAAACAAACCGCUCCAUGGACUUCCGAAAUUAUAUGAUGAGAGAUGAGACUCUGGAACCACUGCCCAAAAACUGGGAAAUGGCCAACAGAGGAUUGAGCAUCA` has a bound/input enrichment of 0.491 ratio.
With `GGGAGUUCUACAGUCCGACGAUCGCAAUGAAAAAGCAGCCCUUCUCCCAGCCCCCUUUUCACCCGGAGACACAAACAUUACAACCGAAGAGCAAUUAAACUCAAUAAAUUUAUCUUUUCAGGAUGAUCCAGAUUCCAGUACCACAACAGAGGAUUGAGCAUCA` the bound/input enrichment was 0.544 ratio.

Block 4
Target: Histone acetyltransferase KAT6A, winged helix 1, GST fusion (KAT6A, Homo sapiens, UniProt Q92794, residues 1-85)
Method: protein binding microarray
Molecule type: double-stranded DNA, one strand shown
Medium: in vitro
Tested at: not given
Setting: 8-mer, flanks averaged, mean of 2 arrays, mostly near background
Reference: not given
Direction: higher = stronger binding
Construct (chain): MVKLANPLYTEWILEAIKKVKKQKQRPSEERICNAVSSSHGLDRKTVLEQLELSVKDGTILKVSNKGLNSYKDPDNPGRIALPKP
`CTGCAGTC` has an E-score of -0.152.
The E-score of `CGTCAGCC` is reported as 0.153.
`AGGCGCTA` gave an E-score of 0.15.
`ACAACTAG` has an E-score of -0.0755.
For `ACACCAAG`, the E-score was -0.114.
For `AATCCTAA`, the E-score was -0.00323.
With `CACTACGG` the E-score was 0.228.
`CCCACGAG` has an E-score of -0.219.
`AATTGAAA` gave an E-score of -0.343.
The E-score of `AAGTTATC` is reported as -0.136.
The E-score of `TCTCTCCA` is reported as -0.143.
`GGCTCCCC` gave an E-score of 0.00683.
`CCCCCAAC` has an E-score of -0.22.
The E-score of `TCATGCAA` is reported as -0.16.
For `CTCAACGA`, the E-score was -0.125.
With `AGGCAGTA` the E-score was -0.0886.
With `TCAACCAA` the E-score was -0.218.
The E-score of `TGAACGAA` is reported as -0.197.
`TATTTTGA` has an E-score of -0.278.
`ACCTGTCA` gave an E-score of -0.136.

Block 5
Target: Phosphate system positive regulatory protein PHO4, full length, GST-tagged (PHO4, Saccharomyces cerevisiae, UniProt P07270, residues 1-312)
Method: competition protein-binding microarray
Molecule type: double-stranded DNA, one strand shown
Medium: in vitro
Tested at: 2 µM
Setting: whole 60-bp probe, lowest competitor level
Together with: Cbf1 competitor, 0.05 µM
Direction: higher = stronger binding
Residues (chain): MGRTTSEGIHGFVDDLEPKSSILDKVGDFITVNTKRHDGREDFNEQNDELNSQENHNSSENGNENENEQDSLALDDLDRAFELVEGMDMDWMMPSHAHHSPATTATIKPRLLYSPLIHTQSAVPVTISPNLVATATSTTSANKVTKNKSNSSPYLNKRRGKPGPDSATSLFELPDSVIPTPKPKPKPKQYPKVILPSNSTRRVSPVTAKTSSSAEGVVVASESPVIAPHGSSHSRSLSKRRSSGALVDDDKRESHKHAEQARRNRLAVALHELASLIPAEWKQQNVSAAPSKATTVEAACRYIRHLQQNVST
`GTCTTGTCTCATTCGCACGTGTTTTTCCCCACTTCAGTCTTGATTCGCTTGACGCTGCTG` gave a fluorescence intensity of 14300 a.u.
`GTCTTGTCTCATTGGAACGTGGGTGTCCCCACTTCAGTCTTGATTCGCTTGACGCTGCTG` gave a fluorescence intensity of 14500 a.u.
For `CTATGATCTTGTATTCATGTGATTGTAAATAATATTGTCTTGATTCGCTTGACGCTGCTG`, the fluorescence intensity was 5850 a.u.
`CTTTCCCGATCTTTTCACGTGTGATTAGCACATTTGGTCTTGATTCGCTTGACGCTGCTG` gave a fluorescence intensity of 12100 a.u.
For `AAGATAGGATTGAACATCGTGCAAACAATGGCCAGCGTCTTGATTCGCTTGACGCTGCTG`, the fluorescence intensity was 9470 a.u.
With `CGGGGTTAAGTTTTTCACGTGCAATGCTTGCAGCAGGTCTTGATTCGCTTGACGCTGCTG` the fluorescence intensity was 11600 a.u.
With `CTAACGAAGGTTTGTCTGGTGGGTGACAAGCCAAGTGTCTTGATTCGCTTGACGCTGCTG` the fluorescence intensity was 4230 a.u.
For `TCGCCACCTCTGGTACCCGTGACGAAGCCAAGAAATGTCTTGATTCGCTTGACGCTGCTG`, the fluorescence intensity was 6940 a.u.
The fluorescence intensity of `GCTTTGGCATATTGCCACATGCGAATGTACATGTCCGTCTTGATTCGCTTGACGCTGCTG` is reported as 9710 a.u.
`CTTGGATGGATAGGACACGTGACGGCTTGAATGTAGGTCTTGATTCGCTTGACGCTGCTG` has a fluorescence intensity of 16900 a.u.
With `CTTTTGAGAATTGTCAACGTGGGTAGGTTCGTTTCGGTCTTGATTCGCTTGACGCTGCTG` the fluorescence intensity was 13100 a.u.
With `AAATTACTAAGTTGGTCGGTGGGTGACGCCGTATGAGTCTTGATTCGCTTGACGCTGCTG` the fluorescence intensity was 3700 a.u.
The fluorescence intensity of `CTAACGAAGGTTTGTTATGTGGGTGACAAGCCAAGTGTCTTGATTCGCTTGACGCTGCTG` is reported as 4010 a.u.
For `ATATCATTTCGCCAACACGTGAGATATCATCTGGCTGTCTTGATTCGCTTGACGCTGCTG`, the fluorescence intensity was 12400 a.u.
With `CTTCTGTAAATTTTACACGTGTTTTGACGCGCCCCGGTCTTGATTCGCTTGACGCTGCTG` the fluorescence intensity was 16000 a.u.
For `CTCCTCCTCCGGCTTCACGTGTGGAATAGGTGTATGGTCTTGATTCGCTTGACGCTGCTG`, the fluorescence intensity was 14000 a.u.
For `TAGATTCCTAATTGTCTTGTGACGCTTAAAGCAGGGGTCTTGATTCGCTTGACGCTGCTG`, the fluorescence intensity was 3260 a.u.
For `ACTGAGTCTACCAGTTATGTGACAGTATATGTCAGCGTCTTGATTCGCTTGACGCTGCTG`, the fluorescence intensity was 3930 a.u.
`CTTCTGTAAATTTGTCAAGTGGGTGGACGCGCCCCGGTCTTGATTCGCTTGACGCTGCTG` gave a fluorescence intensity of 3860 a.u.
For `ATTTGGCGAACTGTGAACGTGCGGAGGGCAGAATCCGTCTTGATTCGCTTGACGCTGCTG`, the fluorescence intensity was 11700 a.u.
The fluorescence intensity of `TCAAGTATCTTTTAGCACGTATCAGATAACTAATGGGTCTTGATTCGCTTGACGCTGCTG` is reported as 7760 a.u.
For `TTACATGTAGGTAGCTTCGTGCCAGAACGCAAGGGTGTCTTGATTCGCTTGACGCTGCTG`, the fluorescence intensity was 7900 a.u.
For `CATACCCAACCTTGGGAAGTGGGTGAAGATATTTGTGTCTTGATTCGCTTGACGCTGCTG`, the fluorescence intensity was 3650 a.u.
With `CATGCCCTTTCCTCCCTCGTGGGACCTCCCAGGAGAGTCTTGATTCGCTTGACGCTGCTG` the fluorescence intensity was 11200 a.u.

For quick reference, copied from above (block 4):
`AGGCGCTA` gave an E-score of 0.15.
The E-score of `AAGTTATC` is reported as -0.136.
With `CACTACGG` the E-score was 0.228.
`GGCTCCCC` gave an E-score of 0.00683.
`CCCCCAAC` has an E-score of -0.22.
For `AATCCTAA`, the E-score was -0.00323.
`ACAACTAG` has an E-score of -0.0755.
The E-score of `TCTCTCCA` is reported as -0.143.
The E-score of `TCATGCAA` is reported as -0.16.
`CTGCAGTC` has an E-score of -0.152.
`TATTTTGA` has an E-score of -0.278.
`ACCTGTCA` gave an E-score of -0.136.
`AATTGAAA` gave an E-score of -0.343.
With `AGGCAGTA` the E-score was -0.0886.
